Assay results gathered from unrelated publications.
Each numbered part is a random draw from the data of one study; scales do not carry over between parts.

Study 1 — technique: protein-binding microarray; form: double-stranded DNA, one strand shown; matrix: in vitro; concentration: 940 nM top; setting: 60-bp whole probe; together with: salmon DNA 0.4 mg/ml; relative to: random background probes; reading: higher = stronger binding
Target: Interferon regulatory factor 5, full length, phosphomimetic (IRF5, Homo sapiens, UniProt Q13568-2, residues 1-514, S451D/S453D/S456D/S462D)
| Oligonucleotide | fitted relative affinity |
| --- | --- |
| GCCTAGCACGACGGTATCGACTTTCGGGTCGTGCTAGTCTTGATTCGCTTGACGCTGCTG | 5.6 z-score |
| GCCTAGCACGACGGTAGCCTACTGCTGACGTGCTAGGTCTTGATTCGCTTGACGCTGCTG | -0.858 z-score |
| GCCTAGCACTCAAAAATCTCAATGGGACTGTGCTAGGTCTTGATTCGCTTGACGCTGCTG | -0.0966 z-score |
| GCCTAGCACTCACTTATAAATAGCACACTGTGCTAGGTCTTGATTCGCTTGACGCTGCTG | 0.471 z-score |

Study 2 — technique: protein binding microarray; form: double-stranded DNA, one strand shown; matrix: in vitro; concentration: not given; relative to: not given; reading: higher = stronger binding
Target: Histone acetyltransferase KAT6A, winged helix 1, GST fusion (KAT6A, Homo sapiens, UniProt Q92794, residues 1-85)
Setting: 8-mer, flanks averaged, mean of 2 arrays, mostly near background
Target sequence (chain): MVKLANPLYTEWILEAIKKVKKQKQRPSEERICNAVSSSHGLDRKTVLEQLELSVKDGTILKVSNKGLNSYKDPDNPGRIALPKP
| Oligonucleotide | E-score |
| --- | --- |
| GTCTTAAC | -0.131 |
| TGTCTCAA | -0.155 |
| ACCATGAT | -0.102 |
| AGCGGCTA | 0.337 |
| CTTGATGA | -0.154 |
| ACACGGTG | 0.205 |

Other studies, line by line
| Substance | target or system | test | test system | setting | how to read | endpoint | value |
| --- | --- | --- | --- | --- | --- | --- | --- |
| PhoQ, residues 284 288 289 292 302 303 SLKLQV | PhoP, residues 12 14 15 18 19 SGWQI (Escherichia coli, UniProt P23836) | Sort-seq, refers to: YFP reporter | E. coli | PhoQ-PhoP variant library, together with: 10 µM Mg2+ | relative to: high Mg2+ state, higher = stronger signaling | fold induction | 15.5 |
| COPB1 (Homo sapiens, UniProt P53618) | COPA (Homo sapiens, UniProt P53621) | cross-linking MS | cell fractions | together with: DMTMM | – | cross-linked residues | K703 to E679 |

Some of these lines once more (study 2):
| Oligonucleotide | E-score |
| --- | --- |
| ACACGGTG | 0.205 |
